Measured values collected from several papers.
Each line is one published result; not all experiments were run side by side. ± gives the spread as reported.

The AUC(0-inf) of Cc1cc(Nc2cc3ncccc3c(N[C@@H]3C[C@H]4CC[C@@H](C3)N4CCC#N)n2)n[nH]1 is reported as 0.0052 µg·h/mL (human, plasma; 30 mg single dose, mean).
[H]/N=C(/N)c1ccc(NCc2nc3cc(C(=O)N(CCC(=O)O)c4ccccn4)ccc3n2C)cc1 gave an AUC(0-inf) of 0.522 µg·h/mL (healthy humans, plasma; oral, 75 mg, alone, geometric mean).
For CN(C)N=Nc1[nH]cnc1C(N)=O, the AUC(0-inf) was 102 µg·h/mL (human patients, plasma; intravenous, 1000 mg/m^2 over 1 h, cycle 2 day 1, staggered with twice-weekly co-drug).
CC1(COc2ccc3c(c2)ncn3-c2ccc3cccc(N4CCC(N)CC4)c3n2)COC1 has an AUC(0-inf) of 5.78 µM·h (human patients, recurrent/progressive HGG or DIPG, serum; oral, 130 mg/m^2, day 1, median).
For Cl.O=C(NC1CCOCC1)c1csc([C@@H]2C[C@H]2NCC2CC2)c1, the AUC(0-inf) was 0.638 µg·h/mL (human, fed, plasma; oral, 30 mg single dose).
With Cc1cccc(F)c1N1CCC(N2Cc3cn(CC(C)(F)F)nc3N(Cc3ccccc3C(F)(F)F)C2=O)CC1 the AUC(0-inf) was 5.43 µg·h/mL (human healthy subjects, plasma; oral, 100 mg, single dose, fed, geometric mean).
O=C(/C=C/CN1CCCCC1)Nc1cc2c(Nc3ccc(F)c(Cl)c3)ncnc2cc1O has an AUC(0-inf) of 0.331 µg·h/mL (human, plasma; oral, 30 mg).
C#Cc1cccc(Nc2ncnc3cc(OCCOC)c(OCCOC)cc23)c1 gave an AUC(0-inf) of 37.2 ± 14.6 µM·h (human, plasma; oral, 100 mg, day 1).
For C=CC(=O)N(C)CCOc1c(N)ncnc1-c1cc(F)cc(NC(=O)c2ccc(C3CC3)cc2F)c1C, the AUC(0-inf) was 0.201 µg·h/mL (human, fasted, whole blood; oral, 60 mg single dose, food effect study, mean).
With O=C(O)CCC(=O)O.[2H]C([2H])([2H])Oc1cc(C)c2[nH]ccc2c1CN1CC[C@@H](C2CC2)C[C@H]1c1ccc(C(=O)O)cc1 the AUC(0-inf) was 130 µg·h/mL (healthy humans, fasted, plasma; oral, 200 mg, single dose).
The AUC(0-inf) of C[C@H]1CN(C(=O)CC#N)[C@]12CCN(c1ncnc3[nH]ccc13)C2 is reported as 0.0396 µg·h/mL (healthy adult humans, plasma; oral, 1.5 mg single, geometric mean).
For Cc1nc2ccc(F)cc2n1-c1nc(N)c(F)c(Nc2ccc(C(F)(F)F)cc2)n1, the AUC(0-inf) was 16.5 µg·h/mL (human patients, plasma; oral, 200 mg twice weekly, cycles 1 and 2 pooled).
The AUC(0-inf) of C[C@H](Oc1ccc(Br)cc1-c1ccon1)C(=O)O is reported as 113 µg·h/mL (healthy male humans, plasma; oral, 400 mg once daily, day 1).
Cn1c(=O)oc2ccc(-c3ccc(C[C@@H](C#N)NC(=O)[C@@H]4CNCCCO4)cc3)cc21 gave an AUC(0-inf) of 4.49 µg·h/mL (human, moderate renal impairment, plasma; oral, 25 mg single dose, mean).
With C[C@@H](Cn1ccc(-c2ccc(C#N)c(Cl)c2)n1)NC(=O)c1cc([C@@H](C)O)[nH]n1 the AUC(0-inf) was 2.42 µg·h/mL (human, fasted, plasma; oral tablet, 300 mg, geometric mean).
With C#C[C@]1(CO)O[C@@H](n2cnc3c(N)nc(F)nc32)C[C@@H]1O the AUC(0-inf) was 11.7 µM·h (human, plasma; oral, 100 mg, single dose, geometric mean).
With CNC(=O)c1ccc(-c2cnc3ncc(Cc4ccc5ncccc5c4)n3n2)cc1F the AUC(0-inf) was 6.23 µg·h/mL (human moderate hepatic impairment; oral, 200 mg single dose, covariate-adjusted geometric mean).
With NC(CO)(CO)CCc1ccc(Sc2cccc(OCc3ccccc3)c2)cc1Cl the AUC(0-inf) was 0.145 µg·h/mL (human male, whole blood; oral, 3 mg, together with: cyclosporin 100 mg b.i.d.).
With CO[C@H]1C[C@@H]2CC[C@@H](C)[C@@](O)(O2)C(=O)C(=O)N2CCCC[C@H]2C(=O)O[C@H]([C@H](C)C[C@@H]2CC[C@@H](OCCO)[C@H](OC)C2)CC(=O)[C@H](C)/C=C(\C)[C@@H](O)[C@@H](OC)C(=O)[C@H](C)C[C@H](C)/C=C/C=C/C=C/1C the AUC(0-inf) was 0.338 ± 0.148 µg·h/mL (human patients, plasma; oral, 5 mg single dose, together with: vorolanib 150 mg).
The AUC(0-inf) of NC[C@@]1(CC(=O)O)[C@@H]2CC[C@H]3C[C@@H]2[C@@H]1C3 is reported as 6.66 µg·h/mL (human, severe renal impairment, plasma; oral, 20 mg single dose, geometric mean).
Cc1cc(C)c(CNC(=O)c2cc(Cl)c3c(c2C)O[C@@](C)([C@H]2CC[C@H](N(C)C)CC2)O3)c(=O)[nH]1 has an AUC(0-inf) of 3.18 µg·h/mL (geometric LS mean; healthy male humans, plasma; oral, dose not given, together with: itraconazole).
CC(=O)c1cc(C(=O)N[C@@H](C)Cn2ccc(-c3ccc(C#N)c(Cl)c3)n2)[nH]n1 has an AUC(0-inf) of 21.6 µg·h/mL (human, fasted, plasma; oral tablet, 300 mg, geometric mean).
Cn1nnc2c(C(N)=O)ncn2c1=O has an AUC(0-inf) of 12.3 µg·h/mL (human patients, plasma; oral, 55 mg/m2, day 5, dose level DL6, median, together with: talazoparib 600 µg/m2).
For C=CC(=O)NC1CCN(c2ncc3ncnc(Nc4ccc(Oc5ccc6c(c5)ncn6C)c(C)c4)c3n2)CC1, the AUC(0-inf) was 5.98 µM·h (human, male; oral, 30 mg, fasted, spray-dried dispersion, geometric mean).
For CC(C)[C@@H]1CC[C@@H](C)C[C@H]1OC(=O)O[C@@H](C)OC(=O)[C@H]1[C@@H]2C[C@H](F)[C@@](N)(C(=O)O)[C@@H]21, the AUC(0-inf) was 0.0226 µg·h/mL (human, plasma; oral, 10 mg single dose, fed).
COc1cc(C(=O)NC2CCN(C)CC2)c(F)cc1Nc1ncc(C(F)(F)F)c(Oc2cccc3c2C(=O)N(C)C3)n1 gave an AUC(0-inf) of 24.7 µM·h (human, Taiwanese, plasma; oral, 200 mg single dose, geometric mean).
N[C@@H]1c2cccnc2[C@H](OC(=O)N2CCC(n3c(=O)[nH]c4ncccc43)CC2)CC[C@H]1c1cccc(F)c1F gave an AUC(0-inf) of 5.15 µg·h/mL (human, plasma; oral, 75 mg single dose, alone, geometric mean, fluconazole DDI study).
For Nc1c2c(cc3c1CCC3)CCC2, the AUC(0-inf) was 0.153 µg·h/mL (human, plasma; oral, 150 mg of GDC-2394, single ascending dose).
The AUC(0-inf) of N#C[C@H](C[C@@H]1CCCNC1=O)NC(=O)[C@H](CC1CC1)NC(=O)c1cc2cccc(Cl)c2[nH]1 is reported as 5.46 µg·h/mL (human; 225 mg twice daily, day 1).
COc1ccc([C@@H](O)c2cc(-c3ncnc4cc(N5CCOCC5)ccc34)c(F)cc2Cl)nn1 gave an AUC(0-inf) of 1.1 µg·h/mL (healthy human volunteers, plasma; oral, 100 mg single dose, tablet, fasted, geometric mean).
Cn1cncc1[C@@](N)(c1ccc(Cl)cc1)c1ccc2c(c1)c(-c1cccc(Cl)c1)cc(=O)n2C gave an AUC(0-inf) of 1.05 µg·h/mL (healthy human subjects, plasma; oral, 100 mg, fasted).
CCN1CCN(Cc2ccc(Nc3ncc(F)c(-c4cc(F)c5nc(C)n(C(C)C)c5c4)n3)nc2)CC1 gave an AUC(0-inf) of 3.11 µg·h/mL (fasted healthy human subjects, plasma; oral, 150 mg, tablet).
For CN1C(=O)[C@@H](NC(=O)c2nnc(Cc3ccccc3)[nH]2)COc2cccnc21, the AUC(0-inf) was 1.8 µg·h/mL (healthy human, fasted, plasma; oral, 10 mg single dose, geometric mean).
The AUC(0-inf) of CCn1cc(C(=O)N2CCOCC2)c(=O)c2cc(NC3Cc4ccccc4C3)cnc21 is reported as 19.9 µg·h/mL (human, fasted, plasma; oral, 600 mg single dose, tablet, arithmetic mean).
The AUC(0-inf) of CN[C@@H](C)C(=O)N[C@H]1CN(S(=O)(=O)c2cccc(S(=O)(=O)N3CC[C@H]4CC[C@@H](C(=O)NC(c5ccccc5)c5ccccc5)N4C(=O)[C@@H](NC(=O)[C@H](C)NC)C3)c2)CC[C@H]2CC[C@@H](C(=O)NC(c3ccccc3)c3ccccc3)N2C1=O is reported as 1.08 ± 0.6 µg·h/mL (LC-MS/MS, noncompartmental; human, plasma; 45 mg, cycle 1 day 1).
With CN(CC#N)C(=O)C[C@H](Nc1nc2ccccc2[nH]1)c1cccc(C(F)(F)F)c1 the AUC(0-inf) was 11.3 ± 0.664 µg·h/mL (human; intravenous infusion, 2 mg/kg, 1 mg/mL formulation).
For COC(=O)N[C@H](C(=O)N1CCC[C@H]1c1nc2cc([C@H]3CC[C@H](c4cc5nc([C@@H]6CCCN6C(=O)[C@@H](NC(=O)OC)[C@@H](C)OC)[nH]c5cc4F)N3c3cc(F)c(N4CCC(c5ccc(F)cc5)CC4)c(F)c3)c(F)cc2[nH]1)[C@@H](C)OC, the AUC(0-inf) was 1.07 µg·h/mL (healthy human subjects, plasma; oral, dose not given, together with: carbamazepine twice daily).
C[C@@H](Oc1ccc(S(C)(=O)=O)cc1C(=O)N1C[C@@H]2C[C@]2(c2cc(C(F)(F)F)on2)C1)C(F)(F)F gave an AUC(0-inf) of 12.7 µM·h (healthy young humans, plasma; oral, 25 mg single dose).
For CN(C)C(=O)c1cc2cnc(Nc3ccc(N4CCNCC4)cn3)nc2n1C1CCCC1, the AUC(0-inf) was 13.6 µg·h/mL (human, end-stage renal disease, plasma; oral, 400 mg, single dose, geometric mean).
With CC(C)=CCC/C(C)=C/CC/C(C)=C/CC[C@@](C)(O)CCC1=C(C)C(=O)C(C)=C(C)C1=O the AUC(0-inf) was 4.24 µg·h/mL (healthy human, plasma; oral, 400 mg, single dose, alone).
N[C@](CO)(CCc1ccc(Sc2cccc(OCc3ccccc3)c2)cc1Cl)COP(=O)(O)O gave an AUC(0-inf) of 0.169 µg·h/mL (human, blood; 3 mg, mean, alone).

Repeated from above:
The AUC(0-inf) of CCn1cc(C(=O)N2CCOCC2)c(=O)c2cc(NC3Cc4ccccc4C3)cnc21 is reported as 19.9 µg·h/mL (human, fasted, plasma; oral, 600 mg single dose, tablet, arithmetic mean).
The AUC(0-inf) of CN[C@@H](C)C(=O)N[C@H]1CN(S(=O)(=O)c2cccc(S(=O)(=O)N3CC[C@H]4CC[C@@H](C(=O)NC(c5ccccc5)c5ccccc5)N4C(=O)[C@@H](NC(=O)[C@H](C)NC)C3)c2)CC[C@H]2CC[C@@H](C(=O)NC(c3ccccc3)c3ccccc3)N2C1=O is reported as 1.08 ± 0.6 µg·h/mL (LC-MS/MS, noncompartmental; human, plasma; 45 mg, cycle 1 day 1).
With CN(CC#N)C(=O)C[C@H](Nc1nc2ccccc2[nH]1)c1cccc(C(F)(F)F)c1 the AUC(0-inf) was 11.3 ± 0.664 µg·h/mL (human; intravenous infusion, 2 mg/kg, 1 mg/mL formulation).
